Experimental data of several laboratories.
Each numbered part is a random draw from the data of one study; scales do not carry over between parts. Substitutions count along the parent as printed.

Sample 1
Target: Interferon regulatory factor 7, full length, phosphomimetic (IRF7, Homo sapiens, UniProt Q92985, residues 1-503, S471D/S472D/S475D/S476D/S477D/S483D/S484D/S487D)
Technique: protein-binding microarray
Molecule type: double-stranded DNA, one strand shown
Sample: in vitro
Concentration: 2200 nM top
Setting: 60-bp whole probe
Together with: salmon DNA 0.4 mg/ml
Reference: random background probes
Reading: higher = stronger binding
Shared flanks, not repeated: GCCTAGCAC … GTCTTGATTCGCTTGACGCTGCTG
Construct (chain): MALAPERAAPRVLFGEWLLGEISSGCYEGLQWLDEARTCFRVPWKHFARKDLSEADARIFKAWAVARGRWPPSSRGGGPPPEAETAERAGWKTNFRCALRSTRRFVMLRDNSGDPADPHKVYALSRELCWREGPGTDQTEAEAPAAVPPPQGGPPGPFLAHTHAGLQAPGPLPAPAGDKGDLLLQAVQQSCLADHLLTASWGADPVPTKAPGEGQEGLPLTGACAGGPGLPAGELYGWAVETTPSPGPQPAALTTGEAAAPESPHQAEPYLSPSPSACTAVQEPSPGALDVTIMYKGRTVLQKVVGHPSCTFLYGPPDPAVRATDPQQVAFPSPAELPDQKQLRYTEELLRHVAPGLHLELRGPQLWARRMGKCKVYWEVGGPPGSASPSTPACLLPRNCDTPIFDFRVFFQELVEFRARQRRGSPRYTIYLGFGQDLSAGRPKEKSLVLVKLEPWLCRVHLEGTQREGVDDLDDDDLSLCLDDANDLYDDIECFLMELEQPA
Under “fitted relative affinity”, `TTAGATATCGGGGTTCGATTAGTGCTA` is recorded as 0.376 z-score.
For `CTCACCATCATCCTCACTGCGTGCTAG`, “fitted relative affinity” read 1.32 z-score.
`TCATGCTTCGAGATCTCACTGTGCTAG` — result for “fitted relative affinity”: 1.21 z-score.
`TTAGATATCCTTTTCCTTTAGTGCTAG` — result for “fitted relative affinity”: 1.77 z-score.
`GAAGAACTGGGGTATCGAGACGTGCTA`: “fitted relative affinity” -0.33 z-score.

Sample 2
Target: CCNB3, cyclin fold, Cln2 fusion (human)
Technique: yeast growth competition, sequencing
Sample: yeast
Setting: strong parent motif
Reference: not given
Reading: higher = stronger binding
Starting sequence: BRCA2 docking peptide (human); PSIKRNLLNEFDR; partner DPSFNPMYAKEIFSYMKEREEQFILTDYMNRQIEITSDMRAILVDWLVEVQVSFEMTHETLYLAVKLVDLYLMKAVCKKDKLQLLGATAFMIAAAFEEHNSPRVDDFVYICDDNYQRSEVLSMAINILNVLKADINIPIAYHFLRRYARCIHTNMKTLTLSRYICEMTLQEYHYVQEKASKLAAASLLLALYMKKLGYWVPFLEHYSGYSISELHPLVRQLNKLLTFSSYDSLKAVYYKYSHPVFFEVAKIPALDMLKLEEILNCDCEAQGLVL
Under “normalised enrichment score”, `PSIKRNLLNFFDR [E10F]` is recorded as 0.692.
Under “normalised enrichment score”, `PSIKRNLLNWFDR [E10W]` is recorded as 0.162.
`PSIKRNLLEEFDR [N9E]` — result for “normalised enrichment score”: 1.38.
Under “normalised enrichment score”, `PTIKRNLLNEFDR [S2T]` is recorded as 1.06.

Sample 3
Target: ABI1, truncated, D143A, DHFR fusion (Arabidopsis thaliana)
Technique: DHFR PCA, deep sequencing
Sample: yeast
Setting: methotrexate growth selection, single substitutions
Together with: (+)-ABA 710 µM
Reference: wild-type fitted maximum
Reading: higher = stronger binding
Starting sequence: PYL1, truncated, DHFR fusion (Arabidopsis thaliana); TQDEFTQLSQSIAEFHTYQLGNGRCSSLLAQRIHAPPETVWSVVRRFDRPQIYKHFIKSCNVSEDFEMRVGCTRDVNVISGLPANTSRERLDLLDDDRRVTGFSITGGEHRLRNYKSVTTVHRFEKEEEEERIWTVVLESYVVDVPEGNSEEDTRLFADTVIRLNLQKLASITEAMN; partner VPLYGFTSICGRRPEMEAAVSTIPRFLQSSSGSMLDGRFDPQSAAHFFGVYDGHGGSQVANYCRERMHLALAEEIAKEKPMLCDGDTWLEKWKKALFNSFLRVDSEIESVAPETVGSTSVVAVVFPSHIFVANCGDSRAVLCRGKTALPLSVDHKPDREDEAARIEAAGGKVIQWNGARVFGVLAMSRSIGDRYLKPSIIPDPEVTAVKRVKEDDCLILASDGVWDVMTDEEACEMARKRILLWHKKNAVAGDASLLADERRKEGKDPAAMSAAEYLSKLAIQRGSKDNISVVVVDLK
`V142G`: “relative binding score” 82%.
`E38V` — result for “relative binding score”: 80.8%.
`V78I`: “relative binding score” 110%.
For `R32E`, “relative binding score” read 96.1%.

Other studies, line by line
`PhoQ, residues 284 288 289 292 302 303 SVTLVV` gave a fold induction of 8.86 (PhoP, residues 12 14 15 18 19 VQGLL (Escherichia coli, UniProt P23836); Sort-seq, refers to: YFP reporter; E. coli; PhoQ-PhoP variant library, together with: 10 µM Mg2+; reference: high Mg2+ state, higher = stronger signaling).

Some of these lines once more (sample 1):
`TCATGCTTCGAGATCTCACTGTGCTAG` — result for “fitted relative affinity”: 1.21 z-score.
